# Measurements pooled from the literature.
# Each numbered part is a random draw from the data of one study; scales do not carry over between parts.

# Study 1
# Target: Phosphate system positive regulatory protein PHO4, full length, GST-tagged (PHO4, Saccharomyces cerevisiae, UniProt P07270, residues 1-312)
# Method: competition protein-binding microarray
# Form: double-stranded DNA, one strand shown
# Matrix: in vitro
# Concentration: 2 µM
# Setting: whole 60-bp probe, lowest competitor level
# With: Cbf1 competitor, 0.05 µM
# Direction: higher = stronger binding
# Shared flanks, not repeated: … GTCTTGATTCGCTTGACGCTGCTG
# Target sequence (chain): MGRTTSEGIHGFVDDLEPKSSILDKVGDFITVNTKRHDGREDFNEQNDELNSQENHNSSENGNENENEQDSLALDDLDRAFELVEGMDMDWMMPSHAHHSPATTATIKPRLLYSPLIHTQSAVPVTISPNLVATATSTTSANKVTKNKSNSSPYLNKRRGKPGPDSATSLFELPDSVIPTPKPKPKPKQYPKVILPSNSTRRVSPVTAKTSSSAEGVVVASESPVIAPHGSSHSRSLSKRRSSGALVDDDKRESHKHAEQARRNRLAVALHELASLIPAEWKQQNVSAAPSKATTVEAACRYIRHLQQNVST
Strand,fluorescence intensity [a.u.]
CGGGGTTAAGTTTGAAAAGTGGGTGGCTTGCAGCAG,4190
CTTTCCCGATCTTGCCCGGTGGGTGTAGCACATTTG,4670
AAAATAGCTGAAATTCACGTGTTGAATTACCGCATC,12800
CCTTCGACCTTCCATCACGTGCAAATAGCTTAATAT,19200
ACTTTGCAAAAAAAGCACGCAGCAGGAAGCTCTTGA,9390
CTTTCCCGATCTTTTCACGTGTGTTTAGCACATTTG,14100
TTGGCACTTCGCACAGGCGTGACTCGTTTCTGTGAA,5980
CGGGGTTAAGTTTGATTGGTGGGTGGCTTGCAGCAG,4700
CGGGGTTAAGTTTTTCACGTGTCATGCTCGCAGCAG,12500
AGATCAAAGTCCCATCACGGGAAGCGGACAACAATA,4590
AGTAGAACTCGTCGGCACGTTCAAAGACCAAGAATT,10600
GTCTTGTCTCATTGGGACGTGGGTGTCCCCACTTCA,6450
CTAACGAAGGTTTGGTTAGTGGGTGACAAGCCAAGT,3750
AATTGTCTAAAATTCGTCGTGCTTTCAGAGACTTGT,5730
AAAGCGGTAATTTGGTTCGTGGGTGCAGATATCTAT,7100
ATGAAGACGGAATCGCACGGGCCTATTACCTCGGGG,8090
AAAGCGGTAATTTGTGGTGTGGGTGCAGATATCTAT,5530
CTTTCCCGATCTTGTCACTAAACTTTAGCACATTTG,4100
TGCGCAACAACTTGACGCGTGGGTGTATGTCTAGAA,10000
AAGAGTGGCTACAAACATGTGAGTTGACCCAAGAAT,7300
CCTTTGAAACGTACCCACGCATTTGCTAAAGAAAAA,8530
CAGCGGATTCCCGAGCACATGGAGTCGCTGAACGAC,10400
AAATTACTAAGTTGCGCGGTGGGTGACGCCGTATGA,4020
CCTTTAAAGGCCCACCACGTGGCTGCGCGGCCAGCC,15900
CTAACGAAGGTTTGACGGGTGGGTGACAAGCCAAGT,4050

# Study 2
# Target: Histone acetyltransferase KAT6A, winged helix 1, GST fusion (KAT6A, Homo sapiens, UniProt Q92794, residues 1-85)
# Method: protein binding microarray
# Form: double-stranded DNA, one strand shown
# Matrix: in vitro
# Concentration: not given
# Setting: 8-mer, flanks averaged, mean of 2 arrays, mostly near background
# Reference: not given
# Direction: higher = stronger binding
# Target sequence (chain): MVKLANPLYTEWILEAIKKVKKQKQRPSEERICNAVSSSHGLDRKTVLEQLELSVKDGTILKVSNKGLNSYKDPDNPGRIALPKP
Strand,E-score
AGGACACG,0.102
GACTTCTA,-0.068
ACGATACT,-0.0624
CACACCAC,-0.234
AACTGGAA,-0.22
ACGCAGAA,0.0565
TGGGGACA,-0.28
ACCTGCGG,0.282
TTGACCAA,-0.153
CAACATGC,0.0882
CCCGTCAC,0.291
CAAGTTTA,-0.115
AAGACATA,-0.012
ATGAGCAC,-0.154
TACTTGGA,-0.124
CATTGCAC,-0.211
AACTGTCA,-0.0415
CTACGCTC,0.132
ATTGCTAC,-0.0921
AGGGCACT,-0.219
AGTCGCAC,0.112
TAATCTAA,-0.0275
CAAACGCC,0.0583
GCGATATA,0.15
AACAATAG,-0.103

# Study 3
# Target: RNA binding protein fox-1 homolog 2, RRM domain, GST-SBP tag (RBFOX2, Homo sapiens, UniProt O43251-10, residues 100-194)
# Method: RNA Bind-n-Seq
# Form: RNA
# Matrix: in vitro
# Concentration: 365 nM
# Setting: natural RNA segment, single round, ends assumed
# Reference: no-protein control
# Direction: higher = stronger binding
# Shared flanks, not repeated: GGGAGUUCUACAGUCCGACGAUC … UGGAAUUCUCGGGUGCCAA
# Residues (chain): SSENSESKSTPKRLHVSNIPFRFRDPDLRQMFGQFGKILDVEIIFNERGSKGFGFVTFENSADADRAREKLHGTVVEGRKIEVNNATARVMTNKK
Strand,RBNS enrichment (R)
CUUCUGACCUUGACACUCCGGCCUCAAGCAGUUGCUGCAGAGUGGUUCUUUUUGCAUUUAAUGCCCAUCACUAUCCUCAUCCCAAAUAAAAUCCAUUCAUACUAGUGGAC,0.688
ACUAACACAGGUCUUCCCUUCCCUCCAACCCCAGGUUUCAGGUCUCAGAGCCAAGCCAGGGUUGGAGAAAACUGCAUUCCUACGAGGGUAAAAGUAGCUGCCCUCUUUGA,0.504
AUUUGUUAGAAGUUUAACUCCUAACAACCCAAAGACCUAUUUAACAAUUGGUGCAUAAAUGAAAGUAGUACUGUAUACUUGAAACUGUUUAAGUACAAGUUGAACAAAAA,0.234
AGCAAGAAACAGUUUCUUGCUUGGAAGCCAGGUACAGGAGAGGCAGCAUGCUUGGGCUGACCCAGCAUCUCCCAGCAAGACCUCAUCUGUGGAGCUGCCACAGAGAAGUU,2.17
GUAAGAUAUUAUUUCUGAAACAGUUUUAGUUAUAUCCACUAUGAUUAUAAACUGUGUCUCGACCUGUGUUAUUUACAUUAGCUGCUUAAAGGAGCAUUGAGUUCUUUGGU,0.44
GCCUCGCAGUGACUUCGCAGCACUGAGUGGCAUCCACCAGGAAUCAGGCUGGAGAAAUGGGAGCCCAGAGAGUGGAGAGUGAUUGGGAGUUACUUGUUCAUUCAAAUCUU,0.441
AACCGCCCAGUGCAGGUAUUUCAGAAGGAGAAGGCUGGAGAAGGACAUGAGAUCAGGGCCUGCCCCCUGGGGAUCACAGCCUCACCCCUGCCCCUGUGGGACUCAUCCUU,0.335
CCCAAGAGCCACCAGCUCUUCUUACCAUACCACUUCCUAACUCCUGUAAGGAUGAGCCCAGUUAGUAAGGAUGUUGGUAAUCAGCAGAGACCAUUCUCAAGGGUAGGUGU,0.464
CUGCUCGUUCUUAAAAAGGUAAAACUAAGAUUUAGAAACAAGGCAGGCCUUAGAGCCGAGGGAGACUAUUAGGCAGCAGGCCAAACCACUCUGGCCCUGGAGCCGCCUUU,0.297

# Study 4
# Target: RING finger protein unkempt homolog, zinc fingers 1-6, GST-SBP tag (UNK, Homo sapiens, UniProt Q9C0B0, residues 30-357)
# Sequence of UniProt Q9C0B0 (30-357, looked up): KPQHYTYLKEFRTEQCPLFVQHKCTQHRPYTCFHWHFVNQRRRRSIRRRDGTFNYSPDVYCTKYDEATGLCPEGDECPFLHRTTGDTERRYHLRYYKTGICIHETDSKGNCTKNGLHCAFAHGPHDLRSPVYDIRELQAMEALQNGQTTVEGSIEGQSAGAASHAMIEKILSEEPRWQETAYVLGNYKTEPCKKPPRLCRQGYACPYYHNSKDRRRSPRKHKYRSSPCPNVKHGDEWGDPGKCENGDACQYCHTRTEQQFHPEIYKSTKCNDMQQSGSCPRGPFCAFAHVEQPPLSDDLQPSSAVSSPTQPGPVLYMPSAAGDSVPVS
# Method: RNA Bind-n-Seq
# Form: RNA
# Matrix: in vitro
# Concentration: not given
# Setting: RNA with constant flanks, human-mouse chimeric sites, ends assumed
# Reference: input RNA pool
# Direction: higher = stronger binding
# Shared flanks, not repeated: GGGAGUUCUACAGUCCGACGAUC … CAACAGAGGAUUGAGCAUCA
Strand,bound/input enrichment [ratio]
GGACCAUAAUCAUGGAGGACAUAAUGCACUUGCCCAGAGCGCGCGUCAACGCCAGCAUGUUACCACAGUAUAUCGACCGGCCCGUGUGCUUCGUGGGGAAGCUGGAAAAGAUUCAUCCCA,0.116
AAAUUUCCCCUCCUGAGACCUCCUCCGAAGUUGGAGUCUCUUAUAGAUGCCUCAUCCCCUGUUAGCGUUUUAGUUUGGACCACCCAGCCUUGGACAAUUCCCGCCAACCAGGCAAUUUGC,1.13
UUUGUAUUUAUGCUAAGCACACGUGCUGGUGGUCUGGGCAUCAAUCUUGCAACUGCUGAUGUAGUAAUUUUGUAUGACUCAGAUUGGAAUCCGCAAGUUGAUCUUCAGGCUAUGGACCGU,0.176
AGAAUCUGUGACUGGCUUUACUUAAUUGGUCAUUGAUAGCUUAACAAACAUGGAGAUAAGAUUAGAAGUUUUGACAUCAACAGGUAUUAAGCAGAAAAAACCAUGGCCACGUGUCUCCUG,0.409
CAACCUCAGAGCCCAGACUUCCUGGAUAUUACCAACCCCAAAGCCGUAUUAGAAAAUGCAUUGAGAAACUUCGCCUGUCUGACGACUGGAGAUGUGAUUGCUAUCAACUACAAUGAGAAG,0.519
UAAGUUAUUUUGUACAGCUUUGUAAAUUCUUAACAUUUUUAUAUUGCCAUGUUUAUUUUGUUUGGGUGCUUUAUUAAAUUAAGUACAAAACCAAAUAAAUGAACAUCUUUUUCAGUAAUU,1.03
AUGGAACAUUUUGAUGCGUCACUCAGUACCUAUUUCAAGGCCUUCCUAGGCCCUCGAGAUACAAGAGUCAAAGGAUGGUUCCUCCUGGACAAUUACAUCCCUACGUUUGUCUGUUCUGUU,0.108
GACUUUGGGACUGGUCCUCGUAAUGCAGCCUACUAUAGCCCUCAUGGACAUAUAUUAGUGCUGGCUGGAUUUGGAAAUCUUCGAGGACAAAUGGAAGUAUGGGAUGUUAAAAACUACAAG,0.385
UCUUAACUUAUUCAUUUAACUUAUUUUUAUAGCUAGAUAAAUAUUGUUAGUCUUAGACAAUAGCUCACAUCUUUACAGAAGCAUGCCCUCCCUGUCCAUUUGUCUUAUAACAUGACCCAG,6.2
CACAGAGGAGAUCUGCUGUUCCUCACGAAUUUCCGGGAGGACCCCAUCAGAGCUGGUGAAAUAGUUGUUUUUAAGGUUGAAGGAAGAGACAUUCCAAUAGUUCACAGAGUAAUCAAAGUU,3.22
GUUCGGCUCUGGGAUCAUGCCACAAUGACAGAAGUGAAAUCUCUGAAUUUUAAUAUGUCUGUUAGCAGCAUGGAGUAUAUUCCUGAGGGAGAGAUUUUGGUUAUAACUUAUGGACGAUCU,0.445
